Assay results collected from several papers.
Protocols differ between the studies behind these lines.
Partner: itself
B1: hhoB PDZ deleted 51-305 (Synechocystis sp. PCC 6803, UniProt P73940); sequence looked up; chain SLTPAPVESNYRSALPLTLPRSAQDDQELNFIARAVQKIGPAVVRIDSERTAVSQGGPMGDQPFFRRFFGEEMPPNPDPREQGTGSGFILSSDGEVLTNAHVVEGASTVKVTLKDGSVLEGKVMGIDTMTDVAVVKVEAENLPVVEIGQSDRLQPGEWAIAIGNPLGLDNTVTVGIISALGRSSSEVGVPDKRVRFIQTDAAINPGNSGGPLLNAKGEVIGVNTAIRADAQGLGFAIPIQTAQNVAENLFTKGKM
B2: Stat3 127-722 (Mus musculus, UniProt P42227-2); pY705, Stattic adducts; sequence looked up; chain GQANHPTAAVVTEKQQMLEQHLQDVRKRVQDLEQKMKVVENLQDDFDFNYKTLKSQGDMQDLNGNNQSVTRQKMQQLEQMLTALDQMRRSIVSELAGLLSAMEYVQKTLTDEELADWKRRQQIACIGGPPNICLDRLENWITSLAESQLQTRQQIKKLEELQQKVSYKGDPIVQHRPMLEERIVELFRNLMKSAFVVERQPCMPMHPDRPLVIKTGVQFTTKVRLLVKFPELNYQLKIKVCIDKDSGDVAALRGSRKFNILGTNTKVMNMEESNNGSLSAEFKHLTLREQRCGNGGRANCDASLIVTEELHLITFETEVYHQGLKIDLETHSLPVVVISNICQMPNAWASILWYNMLTNNPKNVNFFTKPPIGTWDQVAEVLSWQFSSTTKRGLSIEQLTTLAEKLLGPGVNYSGCQITWAKFCKENMAGKGFSFWVWLDNIIDLVKKYILALWNEGYIMGFISKERERAILSTKPPGTFLLRFSESSKEGGVTFTWVEKDISGKTQIQSVEPYTKQQLNNMSFAEIIMGYKIMDATNILVSPLVYLYPDIPKEEAFGKYCRPESQEHPEADPGSAAPYLKTKFICVTPFIDAVWK
B3: PRDX2 (Homo sapiens, UniProt P32119); Cys-Sp/Cys-Sr intersubunit disulfides; sequence looked up; chain MASGNARIGKPAPDFKATAVVDGAFKEVKLSDYKGKYVVLFFYPLDFTFVCPTEIIAFSNRAEDFRKLGCEVLGVSVDSQFTHLAWINTPRKEGGLGPLNIPLLADVTRRLSEDYGVLKTDEGIAYRGLFIIDGKGVLRQITVNDLPVGRSVDEALRLVQAFQYTDEHGEVCPAGWKPGSDTIKPNVDDSKEYFSKHN
B4: ltaE 1-333 (Escherichia coli, UniProt P75823); Lys197 Schiff base with PLP; chain MIDLRSDTVTRPSRAMLEAMMAAPVGDDVYGDDPTVNALQDYAAELSGKEAAIFLPTGTQANLVALLSHCERGEEYIVGQAAHNYLFEAGGAAVLGSIQPQPIDAAADGTLPLDKVAMKIKPDDIHFARTKLLSLENTHNGKVLPREYLKEAWEFTRERNLALHVDGARIFNAVVAYGCELKEITQYCDSFTICLSKGLGTPVGSLLVGNRDYIKRAIRWRKMTGGGMRQSGILAAAGIYALKNNVARLQEDHDNAAWMAEQLREAGADVMRQDTNMLFVRVGEENAAALGEYMKARNVLINASPIVRLVTHLDVSREQLAEVAAHWRAFLAR

B1 (hhoB PDZ deleted 51-305)
subunits per oligomer (SEC; not very stable trimers): 3

SKA1/SKA2/SKA3 S34D (sequence not shown)
subunits per oligomer (SEC, velocity sedimentation): 2

CRYAA R54C (Homo sapiens) (sequence not shown)
subunits per oligomer (non-reducing SDS-PAGE): 2

B2 (Stat3 127-722)
subunits per oligomer (SEC; Stattic treated, phosphorylated): 2

B3 (PRDX2)
subunits per oligomer (SEC; oligomer to dimers, added: H2O2): 10

B4 (ltaE 1-333)
subunits per oligomer (crystal structure; homodimer in asymmetric unit): 4

FER kinase domain, autophosphorylated (Arabidopsis thaliana) (sequence not shown)
subunits per oligomer (AUC; pH 7.5, 20 °C, NaCl 150 mM): 2

HIR2 fragment (Saccharomyces cerevisiae) (sequence not shown)
subunits per oligomer (sedimentation equilibrium; pH 8.0, 4 °C, NaCl 300 mM): 2

Repeated from above:
FER kinase domain, autophosphorylated (Arabidopsis thaliana) (sequence not shown)
subunits per oligomer (AUC; pH 7.5, 20 °C, NaCl 150 mM): 2
